Published values collected from several papers.
A part holds a random share of what one study measured.

Block 1
Target: RNA binding protein fox-1 homolog 2, RRM domain, GST-SBP tag (RBFOX2, Homo sapiens, UniProt O43251-10, residues 100-194)
Technique: RNA Bind-n-Seq
Molecule type: RNA
Matrix: in vitro
Tested at: 365 nM
Setting: natural RNA segment, single round, ends assumed
Relative to: no-protein control
Reading: higher = stronger binding
Target sequence (chain): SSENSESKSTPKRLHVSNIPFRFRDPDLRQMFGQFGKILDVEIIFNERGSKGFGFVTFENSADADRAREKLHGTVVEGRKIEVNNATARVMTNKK
Under “RBNS enrichment (R)”, `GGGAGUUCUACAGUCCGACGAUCAAAUAUUACAGCAAUACACUGGGCUAGUGUCUCACAAAUAACUGAUUUACUCAGAGCCACCUGACAGCAGGCCACUAGUGACAGUUUCUGUUAUGUUCCUAUGGAAACACUGGAAUUCUCGGGUGCCAA` is recorded as 0.322.
`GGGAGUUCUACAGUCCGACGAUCUUGUGGGGAGAGGGAAGGAGGAAGUCAGUUAUUUGAGUAAGCCUCUAGUUGACUUUUCUCUUAGCCUGAAUGUGGACGUUGAAACAUAUCACUUCAGGGCUUGGAAAAGUUGGAAUUCUCGGGUGCCAA` — result for “RBNS enrichment (R)”: 1.08.
For `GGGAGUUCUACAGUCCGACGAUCUCUUACAAGUUCCUUGUUAAUGCACAAGCGUAGGGACCCUUGUACAGACUCUGGCAGUAUUGAUGAGCCUGGCGCUGUUUGCUUUGGUGCAGCCUCCACAGUGCGCGUUCUGGAAUUCUCGGGUGCCAA`, “RBNS enrichment (R)” read 0.817.
`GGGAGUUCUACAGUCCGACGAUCAACUGUCUCCUACCUCUGCUCUUGGAGGAGAUGGGGACAGGGCUGGAGUCAAAACACUUGUAAUUUUGUAUCUUGAUGUCUUUGUUAAGACUGCUGAAGAAUUAUUUUUUUGGAAUUCUCGGGUGCCAA`: “RBNS enrichment (R)” 0.428.
`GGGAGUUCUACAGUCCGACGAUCCCGCCUCCCGGGUUCACGCCGUUCUCCUGCCUCAGCCUCUCUGAGAAGCUGGGACUACAGGCGCCCGCCACCACGCCCGGCUAAUUUUUUUGUAUUUUUAGUAGAGACGGUGGAAUUCUCGGGUGCCAA` — result for “RBNS enrichment (R)”: 0.189.
Under “RBNS enrichment (R)”, `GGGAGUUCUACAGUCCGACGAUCCCAUAGAGACCAGGAGGGAGAGCCUCUGUUUUGUAAACUAAGGAUAACCGAGUUUGCUAAAUUGAGAGGGGCUAUUGGGCCCUAGAGGACACUAGGAGACUGGUUAGGACUGGAAUUCUCGGGUGCCAA` is recorded as 0.4.

Block 2
Target: Centromere-binding protein 1, full length, N-terminal tag (CBF1, Saccharomyces cerevisiae, UniProt P17106, residues 1-351)
Sequence of UniProt P17106 (whole entry, looked up): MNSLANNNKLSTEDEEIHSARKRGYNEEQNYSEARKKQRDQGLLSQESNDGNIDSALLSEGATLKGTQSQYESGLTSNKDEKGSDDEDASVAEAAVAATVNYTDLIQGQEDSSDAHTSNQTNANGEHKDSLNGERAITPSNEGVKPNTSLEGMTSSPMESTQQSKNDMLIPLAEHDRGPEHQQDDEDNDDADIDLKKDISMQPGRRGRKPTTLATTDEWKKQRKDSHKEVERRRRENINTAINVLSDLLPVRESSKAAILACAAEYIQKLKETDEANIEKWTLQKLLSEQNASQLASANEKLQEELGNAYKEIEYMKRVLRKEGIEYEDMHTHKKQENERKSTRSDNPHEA
Technique: protein-binding microarray
Molecule type: double-stranded DNA, one strand shown
Matrix: in vitro
Tested at: 0.8 µM
Setting: whole 60-bp probe, no competitor
Reading: higher = stronger binding
`CTATCTTCTGTGGACGTGACAACGTTACGTATATTCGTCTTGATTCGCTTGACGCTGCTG` has a fluorescence intensity of 696 a.u.
The fluorescence intensity of `CTACATCCTGCTCTACACGTTTGTACGTTTTCTTTCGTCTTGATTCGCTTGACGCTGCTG` is reported as 543 a.u.
With `GAAGACTTTCTCACGCTGATGATGATGACAATTTAGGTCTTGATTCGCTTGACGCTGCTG` the fluorescence intensity was 560 a.u.
With `CCTAACTACTATAGCTGTGTGACATAGCTTCGTACAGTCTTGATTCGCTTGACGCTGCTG` the fluorescence intensity was 534 a.u.
`GAATTATGCAAGCCTGACGTGGCCTGAGAATATTAGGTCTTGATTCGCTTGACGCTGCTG` gave a fluorescence intensity of 542 a.u.
`GAAATCTTCAGGTGTGACGTTGTGTTGTGTCAATAGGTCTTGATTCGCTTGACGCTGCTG` gave a fluorescence intensity of 631 a.u.
For `CTAATATGATAATATTCCGTCACCTTGAATACTTTCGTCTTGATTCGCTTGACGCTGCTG`, the fluorescence intensity was 534 a.u.
With `GAATATATAGTCCAAACCGTGACAACTATGCAGTAGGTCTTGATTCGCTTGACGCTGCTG` the fluorescence intensity was 630 a.u.
For `CTACCCTTTAAGCACCACATGGAACTCGACTGCTTCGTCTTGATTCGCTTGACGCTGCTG`, the fluorescence intensity was 576 a.u.
For `CTAACAAGACAATCCAACGTGCGCAAAATGGATTTCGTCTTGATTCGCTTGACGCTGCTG`, the fluorescence intensity was 566 a.u.
`GAAGCAAATTGCATCAACATGATGCAAAAAGTCTAGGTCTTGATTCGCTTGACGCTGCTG` gave a fluorescence intensity of 507 a.u.
For `GAACATCCACTAAATCTGATGATTGTTTCTTAATAGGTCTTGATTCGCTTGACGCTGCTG`, the fluorescence intensity was 490 a.u.
`CTATTCCCCCATGCACTGATGGCGCTTGTATATTTCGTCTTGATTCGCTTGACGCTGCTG` has a fluorescence intensity of 521 a.u.
With `TGTACGAAGCTATAAGGCGTGATTATAGTAGTTAGGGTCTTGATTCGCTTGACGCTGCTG` the fluorescence intensity was 676 a.u.
`CTAGATCATCATTATTATCACCTGTTTTCGCTTTTCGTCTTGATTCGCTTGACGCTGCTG` gave a fluorescence intensity of 914 a.u.
`CTACTATCAAAGCGAAAGGTGACCTTTTTATCGTTCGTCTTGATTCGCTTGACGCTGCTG` gave a fluorescence intensity of 563 a.u.
The fluorescence intensity of `CTATTCAAAGATGATCACGGCTGTTCTCGGAGTTTCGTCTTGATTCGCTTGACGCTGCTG` is reported as 566 a.u.
The fluorescence intensity of `GAAATTTCTATCCCACTCGTGAGTAATGGCTTATAGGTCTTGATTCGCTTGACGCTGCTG` is reported as 520 a.u.

Block 3
Target: Fragile X messenger ribonucleoprotein 1, C-terminal low-complexity region (Fmr1, Mus musculus, UniProt P35922)
Technique: RNA Bind-n-Seq
Molecule type: RNA
Matrix: in vitro
Tested at: 200 nM
Setting: whole 134-nt RNA, ends assumed
Added: 150 mM LiCl
Relative to: input library
Reading: higher = stronger binding
Each molecule: 7-deaza-guanosine replaces G
With `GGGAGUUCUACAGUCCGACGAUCUUCCGCCUCUUUCCGGAGUACAAGAACAACAAACUUUUCCUGACCGGGGAGAGCUAUGCUGGCAUCUACAUCCCCACCCUGGCCGUGCUGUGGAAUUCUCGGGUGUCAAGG` the log2 enrichment was 1.54.
The log2 enrichment of `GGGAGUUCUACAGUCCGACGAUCUCAAGUCCUGUGCUACACAUCGUAUGUACCGAAUCGGGUUUGGGAGGGAAAGGGAAAGUAUUAUGUUACGCCGUUCGGAUCUGCACUUCCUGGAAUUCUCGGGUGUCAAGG` is reported as -1.46.
The log2 enrichment of `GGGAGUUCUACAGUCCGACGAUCUGCAUCUGCACUGGAGAAAUGGAAGACAGCAAUCCGGGAAGCUCAGACUUUCUCCAGGAUGCACGUGCUGCUUGGGAUGCUUGAUGCCUGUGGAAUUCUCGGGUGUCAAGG` is reported as -1.63.
The log2 enrichment of `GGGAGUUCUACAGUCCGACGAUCUGGACAUGGAUUUUCAAGCCUACUUAGCUUCCUCUAGUGAAGAUGAAGAGGAGAUAGAAGAGGAGCUACAAGGUAUUGUUAAUCUUUCAGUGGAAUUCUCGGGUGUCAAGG` is reported as -2.78.
The log2 enrichment of `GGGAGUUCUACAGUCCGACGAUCAAGUCCUGUGCUACACAUCGUAUGUACCGAAUCGGGUGGGUUUUUUUGGGAAAGGGAAAGUAUUAUGUUACGCCGUUCGGAUCUGCACUUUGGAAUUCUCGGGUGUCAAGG` is reported as -0.488.
For `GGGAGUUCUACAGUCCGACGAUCUAGAUAUCCAUAGAAAAGAGAACUCUGGAGCUGCAGAGAAGCCUGUCACCAUCCAUGCCACCCCAGAGGGGACUUCUGAAGCAUGCCGCAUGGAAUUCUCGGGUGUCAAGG`, the log2 enrichment was -0.216.
With `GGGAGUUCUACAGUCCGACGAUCAAGUCCUGUGCUACACAUCGUAUGUACCGAAUCGGGGAAAGGGGAAAGGGGAAAGGAAAGUAUUAUGUUACGCCGUUCGGAUCUGCACUUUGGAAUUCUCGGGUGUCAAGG` the log2 enrichment was -0.0529.
The log2 enrichment of `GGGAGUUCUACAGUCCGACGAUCGUGCUACACAUCGUAUGUACCGAAUCGGGGAAAAAAAGGGGAAAAAAAGGGGAAAAAAAGGGGAAAGUAUUAUGUUACGCCGUUCGGAUCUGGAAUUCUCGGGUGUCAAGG` is reported as 0.797.

Block 4
Target: RING finger protein unkempt homolog, zinc fingers 1-6, GST-SBP tag (UNK, Homo sapiens, UniProt Q9C0B0, residues 30-357)
Technique: RNA Bind-n-Seq
Molecule type: RNA
Matrix: in vitro
Tested at: not given
Setting: RNA with constant flanks, human and mouse sites, ends assumed
Relative to: input RNA pool
Reading: higher = stronger binding
Target sequence (chain): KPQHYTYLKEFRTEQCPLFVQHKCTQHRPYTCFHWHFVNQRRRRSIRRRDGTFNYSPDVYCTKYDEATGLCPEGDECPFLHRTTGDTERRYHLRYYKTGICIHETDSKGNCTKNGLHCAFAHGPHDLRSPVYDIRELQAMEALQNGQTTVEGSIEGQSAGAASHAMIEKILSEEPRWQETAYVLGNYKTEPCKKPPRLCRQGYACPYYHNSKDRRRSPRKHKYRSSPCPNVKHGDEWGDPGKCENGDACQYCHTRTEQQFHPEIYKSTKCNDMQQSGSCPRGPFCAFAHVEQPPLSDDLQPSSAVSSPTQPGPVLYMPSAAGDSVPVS
`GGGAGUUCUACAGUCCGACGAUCAGCAUGUUACAGCGGAAAAUUGCAGAGCUCGAGGAAGAACAGUCCCAGGGCUCCACCACAAAUAGUGACUGGAUGAAAAACCUCAUCUCCCCUGACUUAGGAGUUGUAUUUCUCAAUGUACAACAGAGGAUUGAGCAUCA` has a bound/input enrichment of 0.406 ratio.
`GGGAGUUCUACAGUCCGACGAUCUUACGCAUUGGAGUUGAUAACCACGUGUUACCCUUGGACUGUGUUACUCUGCAGACGUUCUUAGCAAAGUGCUUAGGACCCUUCGAUGAGUGGGAAAGCCGGCUAAGGGUGGCAAAGGAGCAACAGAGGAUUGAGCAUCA` has a bound/input enrichment of 0.136 ratio.
With `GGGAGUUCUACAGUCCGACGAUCGCUGAUCGGUCUUGAUGCAGAACUUUAUUAUGUGAGAAAUGACCUUAUUAGUCACUACGCUCUAUCCUUUAGUCUGUUAGUACCCAGUGAGACAAAUUUCCUGCACUUCACCUGGCAUGCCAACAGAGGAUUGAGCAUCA` the bound/input enrichment was 0.351 ratio.
The bound/input enrichment of `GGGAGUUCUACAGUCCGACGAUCGAAGCAGCAGCACUGCUAGAAAGUGGCAGUUCAGUGGGAGACGAGACCGAUCUUGCUAAUUUAGGUGAUGUGGCUUCUGAUGGGAAAAAGGAACCAUCAGAUAAAGCUGUGAAAAAAGAUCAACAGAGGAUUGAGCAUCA` is reported as 0.317 ratio.
For `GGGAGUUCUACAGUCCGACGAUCGAGUUUGCAGCAGGUCCUGCUCAAUCUGGAAUUUUGUCAGACCGUGAAGUGGUAAACCUCUUUCUUCAUUUUACCGUCAAUCCUAAACCCCGAGUAGAGUACAUUGAUCGGCCACGAUGCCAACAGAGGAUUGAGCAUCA`, the bound/input enrichment was 0.22 ratio.
For `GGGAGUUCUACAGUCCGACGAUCCAAGAGGCUGGACCAAAUGGGAACCCCCUGCCCCGAGAGCAGCUGUUACUUUUAGGGACACUAACAGACCUAUCGGCAGACUUGGAACAAGAGUGCAGGAACGGAAGCCUCUAUGUGAGACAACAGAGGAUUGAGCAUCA`, the bound/input enrichment was 0.273 ratio.
With `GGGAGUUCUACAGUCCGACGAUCAGACUUAAGUUUCCUUGUAUUGAAGAUAACCUAUGACUGUAUGUUUUGCAUUCCUAGAAGCAGGUUAACUGUGUUUUUAAAUUGUUAUAACCACACCUUUUUGAAAUCUGCCCUACAAAACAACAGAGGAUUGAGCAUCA` the bound/input enrichment was 0.238 ratio.
`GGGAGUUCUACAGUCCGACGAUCAGAGCAAUGGCUGCAGCAGCAGCUUCUCACCUGAACCUGGAUGCCCUCCGGGAAGUGCUAGAAUGCCCCAUCUGCAUGGAGUCCUUCACAGAAGAGCAGCUGCGUCCCAAGCUUCUGCACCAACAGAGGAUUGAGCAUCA` gave a bound/input enrichment of 0.067 ratio.

A few entries again (block 3):
With `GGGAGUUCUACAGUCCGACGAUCUUCCGCCUCUUUCCGGAGUACAAGAACAACAAACUUUUCCUGACCGGGGAGAGCUAUGCUGGCAUCUACAUCCCCACCCUGGCCGUGCUGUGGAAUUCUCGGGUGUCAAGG` the log2 enrichment was 1.54.
The log2 enrichment of `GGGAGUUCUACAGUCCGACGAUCUCAAGUCCUGUGCUACACAUCGUAUGUACCGAAUCGGGUUUGGGAGGGAAAGGGAAAGUAUUAUGUUACGCCGUUCGGAUCUGCACUUCCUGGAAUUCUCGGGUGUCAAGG` is reported as -1.46.
The log2 enrichment of `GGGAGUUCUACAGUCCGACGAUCUGCAUCUGCACUGGAGAAAUGGAAGACAGCAAUCCGGGAAGCUCAGACUUUCUCCAGGAUGCACGUGCUGCUUGGGAUGCUUGAUGCCUGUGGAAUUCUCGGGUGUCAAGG` is reported as -1.63.
The log2 enrichment of `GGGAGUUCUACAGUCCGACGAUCUGGACAUGGAUUUUCAAGCCUACUUAGCUUCCUCUAGUGAAGAUGAAGAGGAGAUAGAAGAGGAGCUACAAGGUAUUGUUAAUCUUUCAGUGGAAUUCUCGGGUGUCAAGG` is reported as -2.78.
The log2 enrichment of `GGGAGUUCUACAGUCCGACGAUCAAGUCCUGUGCUACACAUCGUAUGUACCGAAUCGGGUGGGUUUUUUUGGGAAAGGGAAAGUAUUAUGUUACGCCGUUCGGAUCUGCACUUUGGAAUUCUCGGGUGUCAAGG` is reported as -0.488.
